Results collected from several papers.
Parts stem from different laboratories: compare values within a part only.
Sequence of UniProt Q8IW41 (whole entry, looked up): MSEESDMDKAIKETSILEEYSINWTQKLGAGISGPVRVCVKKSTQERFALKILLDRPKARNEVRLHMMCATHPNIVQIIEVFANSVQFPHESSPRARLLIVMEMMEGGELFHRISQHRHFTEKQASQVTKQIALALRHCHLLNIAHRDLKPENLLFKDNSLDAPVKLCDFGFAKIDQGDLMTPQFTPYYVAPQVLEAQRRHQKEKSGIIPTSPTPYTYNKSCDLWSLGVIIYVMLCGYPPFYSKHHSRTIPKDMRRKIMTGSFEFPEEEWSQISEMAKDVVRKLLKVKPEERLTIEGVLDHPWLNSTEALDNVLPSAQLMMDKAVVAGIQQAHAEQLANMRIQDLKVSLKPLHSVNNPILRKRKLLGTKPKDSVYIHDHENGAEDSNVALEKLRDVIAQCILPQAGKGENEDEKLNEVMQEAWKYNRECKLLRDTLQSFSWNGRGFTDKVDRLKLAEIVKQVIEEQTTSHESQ
Sequence of UniProt Q8NEV4 (whole entry, looked up): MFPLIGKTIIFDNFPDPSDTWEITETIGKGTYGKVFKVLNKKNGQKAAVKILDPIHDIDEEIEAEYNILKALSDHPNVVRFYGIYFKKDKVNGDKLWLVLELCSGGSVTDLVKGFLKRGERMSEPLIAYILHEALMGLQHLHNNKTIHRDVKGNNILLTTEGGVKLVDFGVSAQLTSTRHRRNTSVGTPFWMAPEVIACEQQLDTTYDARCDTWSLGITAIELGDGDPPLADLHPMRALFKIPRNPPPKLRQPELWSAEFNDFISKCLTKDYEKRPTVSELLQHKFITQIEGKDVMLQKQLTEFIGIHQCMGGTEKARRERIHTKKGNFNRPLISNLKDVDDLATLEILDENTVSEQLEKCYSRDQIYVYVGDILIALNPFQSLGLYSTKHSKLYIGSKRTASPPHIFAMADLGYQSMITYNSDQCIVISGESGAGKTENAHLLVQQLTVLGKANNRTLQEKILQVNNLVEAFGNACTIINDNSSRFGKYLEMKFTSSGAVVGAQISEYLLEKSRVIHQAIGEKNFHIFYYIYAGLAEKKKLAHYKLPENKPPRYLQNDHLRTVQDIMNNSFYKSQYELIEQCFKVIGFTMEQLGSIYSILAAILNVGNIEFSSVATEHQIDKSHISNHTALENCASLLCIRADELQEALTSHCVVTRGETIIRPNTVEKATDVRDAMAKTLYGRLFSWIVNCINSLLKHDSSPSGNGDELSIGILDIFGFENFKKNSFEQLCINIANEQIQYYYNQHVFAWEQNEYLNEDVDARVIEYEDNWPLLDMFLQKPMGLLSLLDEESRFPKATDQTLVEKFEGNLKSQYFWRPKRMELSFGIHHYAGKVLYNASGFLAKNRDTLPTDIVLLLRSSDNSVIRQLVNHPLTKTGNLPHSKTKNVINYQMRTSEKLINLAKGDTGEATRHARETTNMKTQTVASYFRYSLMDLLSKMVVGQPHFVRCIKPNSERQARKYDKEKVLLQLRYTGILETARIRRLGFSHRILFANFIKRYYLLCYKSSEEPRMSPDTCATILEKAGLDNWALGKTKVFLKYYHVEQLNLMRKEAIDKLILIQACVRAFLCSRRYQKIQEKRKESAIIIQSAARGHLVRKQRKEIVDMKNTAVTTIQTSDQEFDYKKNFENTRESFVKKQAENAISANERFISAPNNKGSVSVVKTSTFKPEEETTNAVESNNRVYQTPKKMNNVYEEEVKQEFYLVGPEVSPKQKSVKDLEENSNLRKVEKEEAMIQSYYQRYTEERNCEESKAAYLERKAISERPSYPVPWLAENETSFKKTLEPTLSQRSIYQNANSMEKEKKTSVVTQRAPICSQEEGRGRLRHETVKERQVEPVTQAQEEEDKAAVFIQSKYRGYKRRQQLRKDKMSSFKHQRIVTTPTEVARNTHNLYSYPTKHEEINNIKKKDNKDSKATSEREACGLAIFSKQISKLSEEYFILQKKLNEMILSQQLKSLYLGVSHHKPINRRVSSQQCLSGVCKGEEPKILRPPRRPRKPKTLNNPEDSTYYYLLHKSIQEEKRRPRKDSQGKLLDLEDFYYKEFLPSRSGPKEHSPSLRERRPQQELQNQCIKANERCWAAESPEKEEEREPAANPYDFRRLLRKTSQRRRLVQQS
Sequence of UniProt Q13554 (whole entry, looked up): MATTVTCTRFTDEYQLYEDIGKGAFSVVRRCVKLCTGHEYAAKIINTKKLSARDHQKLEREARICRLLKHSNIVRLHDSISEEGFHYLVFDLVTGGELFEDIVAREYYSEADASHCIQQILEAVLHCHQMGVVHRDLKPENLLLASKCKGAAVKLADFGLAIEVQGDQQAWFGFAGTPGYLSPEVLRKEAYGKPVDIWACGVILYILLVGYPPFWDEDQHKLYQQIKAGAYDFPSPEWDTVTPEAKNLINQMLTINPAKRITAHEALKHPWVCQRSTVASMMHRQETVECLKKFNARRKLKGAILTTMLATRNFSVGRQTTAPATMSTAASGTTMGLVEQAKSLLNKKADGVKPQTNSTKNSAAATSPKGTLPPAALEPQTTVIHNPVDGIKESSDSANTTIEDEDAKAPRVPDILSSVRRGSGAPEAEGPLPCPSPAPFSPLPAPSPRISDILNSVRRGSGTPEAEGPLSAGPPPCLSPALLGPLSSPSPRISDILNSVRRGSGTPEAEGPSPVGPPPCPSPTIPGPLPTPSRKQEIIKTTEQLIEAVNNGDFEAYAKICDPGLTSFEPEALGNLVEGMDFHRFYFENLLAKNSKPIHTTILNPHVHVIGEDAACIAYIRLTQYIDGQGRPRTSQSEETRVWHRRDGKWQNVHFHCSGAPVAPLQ
Sequence of UniProt P22612 (whole entry, looked up): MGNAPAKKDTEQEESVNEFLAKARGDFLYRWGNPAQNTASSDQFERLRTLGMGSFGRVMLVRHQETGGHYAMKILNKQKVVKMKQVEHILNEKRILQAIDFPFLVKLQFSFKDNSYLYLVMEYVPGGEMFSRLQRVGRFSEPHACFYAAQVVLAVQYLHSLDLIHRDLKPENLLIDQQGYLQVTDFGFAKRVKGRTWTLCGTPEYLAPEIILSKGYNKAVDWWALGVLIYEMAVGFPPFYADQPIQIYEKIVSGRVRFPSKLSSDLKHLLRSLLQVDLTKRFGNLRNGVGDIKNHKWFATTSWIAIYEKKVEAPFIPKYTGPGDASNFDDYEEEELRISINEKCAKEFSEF
Sequence of UniProt Q07912 (whole entry, looked up): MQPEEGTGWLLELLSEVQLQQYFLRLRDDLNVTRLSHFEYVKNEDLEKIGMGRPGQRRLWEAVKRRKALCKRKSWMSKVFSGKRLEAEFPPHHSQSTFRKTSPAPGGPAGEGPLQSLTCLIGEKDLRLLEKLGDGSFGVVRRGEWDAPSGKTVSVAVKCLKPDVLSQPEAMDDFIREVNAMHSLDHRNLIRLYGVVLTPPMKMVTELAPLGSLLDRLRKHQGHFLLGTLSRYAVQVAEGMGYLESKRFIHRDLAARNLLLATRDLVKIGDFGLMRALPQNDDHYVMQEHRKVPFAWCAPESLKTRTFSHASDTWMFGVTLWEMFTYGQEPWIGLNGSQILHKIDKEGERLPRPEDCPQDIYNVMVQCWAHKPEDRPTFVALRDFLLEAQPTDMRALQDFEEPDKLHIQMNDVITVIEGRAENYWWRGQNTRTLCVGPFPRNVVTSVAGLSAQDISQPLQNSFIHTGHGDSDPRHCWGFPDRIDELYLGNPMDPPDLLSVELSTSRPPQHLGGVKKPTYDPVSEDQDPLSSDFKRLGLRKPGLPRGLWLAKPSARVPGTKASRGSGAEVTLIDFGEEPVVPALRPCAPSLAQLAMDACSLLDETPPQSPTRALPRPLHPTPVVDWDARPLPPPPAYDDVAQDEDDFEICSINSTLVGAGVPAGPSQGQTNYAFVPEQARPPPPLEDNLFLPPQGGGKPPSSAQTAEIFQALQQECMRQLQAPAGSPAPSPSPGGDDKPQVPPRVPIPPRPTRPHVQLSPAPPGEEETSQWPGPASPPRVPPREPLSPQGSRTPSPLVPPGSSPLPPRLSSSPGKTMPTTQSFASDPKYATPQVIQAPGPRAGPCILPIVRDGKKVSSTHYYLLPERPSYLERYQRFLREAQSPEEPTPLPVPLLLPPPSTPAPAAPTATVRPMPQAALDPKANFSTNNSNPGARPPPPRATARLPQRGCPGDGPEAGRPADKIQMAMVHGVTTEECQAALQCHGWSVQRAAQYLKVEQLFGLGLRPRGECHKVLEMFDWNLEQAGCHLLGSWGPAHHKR
Sequence of UniProt Q96PF2 (whole entry, looked up): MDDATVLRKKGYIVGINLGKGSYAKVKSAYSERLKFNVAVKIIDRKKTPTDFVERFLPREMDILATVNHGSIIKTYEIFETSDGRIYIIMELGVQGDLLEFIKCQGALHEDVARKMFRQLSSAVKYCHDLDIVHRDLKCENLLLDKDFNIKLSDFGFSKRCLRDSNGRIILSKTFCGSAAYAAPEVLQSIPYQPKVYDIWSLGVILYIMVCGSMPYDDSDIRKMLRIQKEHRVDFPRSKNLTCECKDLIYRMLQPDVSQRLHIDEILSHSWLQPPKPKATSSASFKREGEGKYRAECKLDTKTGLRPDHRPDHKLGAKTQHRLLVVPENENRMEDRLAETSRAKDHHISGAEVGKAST
Sequence of UniProt Q00534 (whole entry, looked up): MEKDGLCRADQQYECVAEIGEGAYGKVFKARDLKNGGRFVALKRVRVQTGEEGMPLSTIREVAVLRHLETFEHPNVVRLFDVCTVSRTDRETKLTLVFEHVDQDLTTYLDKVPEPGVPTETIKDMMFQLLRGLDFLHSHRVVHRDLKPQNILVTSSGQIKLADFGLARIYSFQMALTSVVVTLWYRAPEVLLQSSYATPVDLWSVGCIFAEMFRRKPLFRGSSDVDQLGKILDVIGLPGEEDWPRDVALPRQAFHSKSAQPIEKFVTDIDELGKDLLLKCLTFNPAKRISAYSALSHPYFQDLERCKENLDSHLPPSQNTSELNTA

Series 1
Host: human
Medium: microsomes or S9
Concentration: 2 µM
Time: 0.5 h
For `Cc1nn(CC(=O)O)c2nccc(-c3cnn(C)c3)c12`, the remaining compound was 89.5%.
The remaining compound of `O=C(Nc1ccccc1)c1cn2c(n1)C(c1ccccc1)N(C(=O)c1ccccc1)CC2` (centres unmarked) is reported as over 100%.
`CC(C)(C)OC(=O)N[C@@H](CC(=O)N1CCN(S(C)(=O)=O)CCN1)Cc1cc(F)c(F)cc1F` gave a remaining compound of 32.7%.
`CCOC(=O)N1CCN(CC(O)COc2ccc(C(C)C)c(C)c2)CC1` (centres unmarked) gave a remaining compound of over 100%.
`CN1CCC2(CCCN2Cc2ccc(Cl)cc2Br)CC1` has a remaining compound of 93.3%.

Series 2
SMILES: Oc1cccc(-c2nc(N3CCOCC3)c3oc4ncccc4c3n2)c1
Observed: enzyme activity
Mode: inhibitor
Concentration: 0.5 µM
Relative to: control
Homeodomain-interacting protein kinase 4 (HIPK4, Homo sapiens, UniProt Q8NE63) — remaining activity: 107%.
It gave 93.9% for remaining activity (Serine/threonine-protein kinase WNK3 (WNK3, Homo sapiens, UniProt Q9BYP7)).
Ephrin type-B receptor 4 (EPHB4, Homo sapiens, UniProt P54760) — remaining activity: 104%.
It gave 94.4% for remaining activity (Tyrosine-protein kinase ABL1 (ABL1, Homo sapiens, UniProt P00519)).
It gave 102% for remaining activity (Testis-specific serine/threonine-protein kinase 2 (TSSK2, Homo sapiens, UniProt Q96PF2)).
It gave 108% for remaining activity (Cyclin-dependent kinase 1, with cyclin B (CDK1, Homo sapiens, UniProt P06493)).
For Tyrosine-protein kinase receptor UFO (AXL, Homo sapiens, UniProt P30530): remaining activity read 105%.
cAMP-dependent protein kinase catalytic subunit gamma (PRKACG, Homo sapiens, UniProt P22612) — remaining activity: 101%.
The remaining activity was 94.9% (Dual specificity tyrosine-phosphorylation-regulated kinase 3 (DYRK3, Homo sapiens, UniProt O43781)).
The remaining activity was 89.7% (Cyclin-dependent kinase 6, with cyclin D3 (CDK6, Homo sapiens, UniProt Q00534)).
For Ephrin type-B receptor 1 (EPHB1, Homo sapiens, UniProt P54762): remaining activity read 89.6%.
The remaining activity was 102% (Homeodomain-interacting protein kinase 2 (HIPK2, Homo sapiens, UniProt Q9H2X6)).
For Ephrin type-A receptor 4 (EPHA4, Homo sapiens, UniProt P54764): remaining activity read 96.4%.
For MAP kinase-activated protein kinase 3 (MAPKAPK3, Homo sapiens, UniProt Q16644): remaining activity read 93.9%.
It gave 101% for remaining activity (Tyrosine-protein kinase Blk (BLK, Homo sapiens, UniProt P51451)).
It gave 98.2% for remaining activity (Calcium/calmodulin-dependent protein kinase type II subunit beta (CAMK2B, Homo sapiens, UniProt Q13554)).
It gave 96.2% for remaining activity (Tyrosine-protein kinase Srms (SRMS, Homo sapiens, UniProt Q9H3Y6)).
The remaining activity was 103% (3-phosphoinositide-dependent protein kinase 1 (PDPK1, Homo sapiens, UniProt O15530)).
Ribosomal protein S6 kinase alpha-6 (RPS6KA6, Homo sapiens, UniProt Q9UK32) — remaining activity: 98.2%.

Series 3
Organism: Sarcocystis neurona
Observed: parasite growth
Concentration: 10 µM
`CCC1(c2ccccc2)C(=O)NCNC1=O` gave an inhibition of -26.9%.
With `C[C@@](Cc1ccc(O)c(O)c1)(NN)C(=O)O` the inhibition was -20.2%.
The inhibition of `CCN(CC)CC(=O)Nc1c(C)cccc1C` is reported as -33.5%.
`COc1cc(N)c(Cl)cc1C(=O)NC1CCN(CCCOc2ccc(F)cc2)CC1OC.O` (centres unmarked) has an inhibition of 3.2%.
`C[C@@H]1CN(CCCn2c3ccccc3c3ccccc32)C[C@H](C)N1` gave an inhibition of 11.7%.
With `CC1(C)S[C@@H]2[C@H](NC(=O)[C@H](N)c3ccc(O)cc3)C(=O)N2[C@H]1C(=O)O` the inhibition was -21.1%.
For `NC(=O)c1ncn([C@@H]2O[C@H](CO)[C@@H](O)[C@H]2O)n1`, the inhibition was -29.3%.

Series 4
SMILES: Cc1c[nH]c2nccc(Oc3c(F)cc(Nc4cc(Cl)nc(N)n4)cc3F)c12
Concentration: 0.1 µM
It gave 88% for remaining binding (Serine/threonine-protein kinase Sgk3 (SGK3, Homo sapiens, UniProt Q96BR1); cell-free assay, competition with immobilised ligand).
For Myosin-IIIa (MYO3A, Homo sapiens, UniProt Q8NEV4); cell-free assay, competition with immobilised ligand: remaining binding read 95%.
Serine/threonine-protein kinase MRCK gamma (CDC42BPG, Homo sapiens, UniProt Q6DT37); competition binding — remaining binding: 68%.
It gave 94% for remaining binding (Calcium/calmodulin-dependent protein kinase type 1B (PNCK, Homo sapiens, UniProt Q6P2M8); cell-free assay, competition with immobilised ligand).
It gave 100% for remaining binding (Tyrosine-protein kinase ZAP-70 (ZAP70, Homo sapiens, UniProt P43403); cell-free assay, competition with immobilised ligand).
It gave 100% for remaining binding (Tyrosine-protein kinase Fyn (FYN, Homo sapiens, UniProt P06241); cell-free assay, competition with immobilised ligand).
It gave 72% for remaining binding (Mast/stem cell growth factor receptor Kit (KIT, Homo sapiens, UniProt P10721, L576P); cell-free assay, competition with immobilised ligand).
The remaining binding was 95% (Activated CDC42 kinase 1 (TNK2, Homo sapiens, UniProt Q07912); cell-free assay, competition with immobilised ligand).
It gave 100% for remaining binding (Macrophage colony-stimulating factor 1 receptor, autoinhibited (CSF1R, Homo sapiens, UniProt P07333); cell-free assay, competition with immobilised ligand).
The remaining binding was 74% (Serine/threonine-protein kinase Sgk1 (SGK1, Homo sapiens, UniProt O00141); cell-free assay, competition with immobilised ligand).
For STE20/SPS1-related proline-alanine-rich protein kinase (STK39, Homo sapiens, UniProt Q9UEW8); cell-free assay, competition with immobilised ligand: remaining binding read 94%.
Mitogen-activated protein kinase 11 (MAPK11, Homo sapiens, UniProt Q15759); cell-free assay, competition with immobilised ligand — remaining binding: 97%.
For Serine/threonine-protein kinase Nek3 (NEK3, Homo sapiens, UniProt P51956); cell-free assay, competition with immobilised ligand: remaining binding read 75%.
Serine/threonine-protein kinase pim-2 (PIM2, Homo sapiens, UniProt Q9P1W9); cell-free assay, competition with immobilised ligand — remaining binding: 100%.
It gave 92% for remaining binding (Ephrin type-A receptor 5 (EPHA5, Homo sapiens, UniProt P54756); cell-free assay, competition with immobilised ligand).
Mitogen-activated protein kinase 10 (MAPK10, Homo sapiens, UniProt P53779); cell-free assay, competition with immobilised ligand — remaining binding: 81%.
It gave 87% for remaining binding (Ephrin type-A receptor 8 (EPHA8, Homo sapiens, UniProt P29322); cell-free assay, competition with immobilised ligand).
The remaining binding was 90% (Serine/threonine-protein kinase WNK1 (WNK1, Homo sapiens, UniProt Q9H4A3); cell-free assay, competition with immobilised ligand).
Serine/threonine-protein kinase Nek2 (NEK2, Homo sapiens, UniProt P51955); cell-free assay, competition with immobilised ligand — remaining binding: 97%.
For Serine/threonine-protein kinase SIK3 (SIK3, Homo sapiens, UniProt Q9Y2K2); cell-free assay, competition with immobilised ligand: remaining binding read 100%.
The remaining binding was 80% (Insulin receptor (INSR, Homo sapiens, UniProt P06213); cell-free assay, competition with immobilised ligand).
It gave 81% for remaining binding (MAP kinase-activated protein kinase 5 (MAPKAPK5, Homo sapiens, UniProt Q8IW41); cell-free assay, competition with immobilised ligand).

For quick reference, copied from above (series 4):
It gave 81% for remaining binding (MAP kinase-activated protein kinase 5 (MAPKAPK5, Homo sapiens, UniProt Q8IW41); cell-free assay, competition with immobilised ligand).
It gave 100% for remaining binding (Tyrosine-protein kinase Fyn (FYN, Homo sapiens, UniProt P06241); cell-free assay, competition with immobilised ligand).
Serine/threonine-protein kinase MRCK gamma (CDC42BPG, Homo sapiens, UniProt Q6DT37); competition binding — remaining binding: 68%.
The remaining binding was 90% (Serine/threonine-protein kinase WNK1 (WNK1, Homo sapiens, UniProt Q9H4A3); cell-free assay, competition with immobilised ligand).
It gave 92% for remaining binding (Ephrin type-A receptor 5 (EPHA5, Homo sapiens, UniProt P54756); cell-free assay, competition with immobilised ligand).
It gave 87% for remaining binding (Ephrin type-A receptor 8 (EPHA8, Homo sapiens, UniProt P29322); cell-free assay, competition with immobilised ligand).
